Results gathered from unrelated publications.
± gives the spread as reported.
OPRL1: Nociceptin receptor (OPRL1, Homo sapiens, UniProt P41146)

Amino acid sequences for entries named in this document (tags omitted). Residues count along the entry.
UniProt P41146, whole entry: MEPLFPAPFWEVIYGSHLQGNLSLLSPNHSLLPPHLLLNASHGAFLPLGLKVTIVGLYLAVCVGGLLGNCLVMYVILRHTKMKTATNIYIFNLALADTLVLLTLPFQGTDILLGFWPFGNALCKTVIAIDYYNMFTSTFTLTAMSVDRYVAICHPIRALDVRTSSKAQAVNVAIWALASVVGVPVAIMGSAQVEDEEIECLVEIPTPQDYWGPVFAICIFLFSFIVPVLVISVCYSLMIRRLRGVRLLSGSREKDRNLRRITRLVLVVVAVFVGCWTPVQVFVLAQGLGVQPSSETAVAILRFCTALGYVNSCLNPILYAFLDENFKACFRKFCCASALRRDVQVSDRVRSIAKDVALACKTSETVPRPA
UniProt P49582, 23-502 limits assumed: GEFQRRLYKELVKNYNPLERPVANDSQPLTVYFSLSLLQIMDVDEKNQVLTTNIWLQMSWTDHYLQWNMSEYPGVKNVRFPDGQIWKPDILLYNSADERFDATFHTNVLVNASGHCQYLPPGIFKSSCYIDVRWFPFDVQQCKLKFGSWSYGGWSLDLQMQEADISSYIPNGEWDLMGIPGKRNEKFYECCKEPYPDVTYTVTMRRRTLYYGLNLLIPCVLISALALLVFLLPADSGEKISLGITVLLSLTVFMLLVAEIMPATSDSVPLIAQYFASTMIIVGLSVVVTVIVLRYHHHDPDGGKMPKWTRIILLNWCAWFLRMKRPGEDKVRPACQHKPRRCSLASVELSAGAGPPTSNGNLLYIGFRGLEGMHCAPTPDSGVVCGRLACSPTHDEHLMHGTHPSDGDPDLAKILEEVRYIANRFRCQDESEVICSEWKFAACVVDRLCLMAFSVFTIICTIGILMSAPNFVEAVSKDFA

C#CC(=O)Nc1ccc([As]2SCCS2)cc1 — IC50 (RKO; cell viability, MTS): 790 ± 50 nM
AEOL 10150 — neurodegeneration (Fluoro-Jade B staining; rat, status epilepticus, hippocampal hilus; sc, 7 mg/kg every 4 h, 24 h, from 5 min post-SE): no effect
O=S1(=O)c2ccc(F)cc2-c2ccc(N3CCN4CCC3CC4)cc21 [fluorine-18 labelled] — binding potential BPND (Neuronal acetylcholine receptor subunit alpha-7 (Chrna7, Mus musculus, UniProt P49582); mouse, hippocampus; dose not given, 90 min, unit not given; relative to: cerebellum): 3.1 ± 0.7
13-desmethyl spirolide C — IC50 (nicotinic acetylcholine receptor (Torpedo marmorata); binding; Pecten maximus extract 25 mg/mL, added: biotin-α-bungarotoxin): 7.14 ± 1.07 nM
C[C@H](NP(=O)(Nc1ccn([C@H]2CS[C@@H](COP(=O)(N[C@@H](C)C(=O)OCc3ccccc3)N[C@@H](C)C(=O)OCc3ccccc3)O2)c(=O)n1)N[C@@H](C)C(=O)OCc1ccccc1)C(=O)OCc1ccccc1 — IC50 (L1210 TK-deficient; cell proliferation; 2 d): > 250000 nM
Nc1ccc([As]2SCCS2)cc1 — IC50 (RKO; cell viability, MTS): 3740 ± 880 nM
NC12CC3CC(CC(C3)C1)C2 — EC50 (Influenza A virus; viral replication, plaque size reduction; MDCK, A/Swine/Iowa/10-0628/2010 (H3N2)): > 100000 nM
C[C@H](NP(=O)(Nc1ccn([C@H]2CS[C@@H](CO)O2)c(=O)n1)N[C@@H](C)C(=O)OCc1ccccc1)C(=O)OCc1ccccc1 — IC50 (L1210 TK-deficient; cell proliferation; 2 d): 150000 ± 18000 nM
O=C(Cn1c(-c2ccccn2)nc2ccccc21)Nc1ccc2ccccc2c1 — minimum concentration blocking growth (Helicobacter pylori; cell growth; G27, Brucella broth; culture exiting stationary phase): 20 µM
CCCSc1nc(N[C@@H]2C[C@H]2c2ccc(F)c(F)c2)c2nnn([C@@H]3C[C@H](OCCO)[C@@H](O)[C@H]3O)c2n1 — plasma concentration (STEMI patients, plasma; 180 mg loading dose, 1 h, added: fentanyl): 185 ± 362 ng/mL
CCC1C(=O)N(C2CCN(C3CCCc4ccccc43)CC2)c2ccccc21 (stereo not drawn) — Ki (OPRL1; radioligand displacement; added: [3H]N/OFQ): 8.63 ± 0.96 nM
20-methyl spirolide G — IC50 (nicotinic acetylcholine receptor (Torpedo marmorata); binding; Pecten maximus extract 25 mg/mL, added: biotin-α-bungarotoxin): 23.8 ± 11.5 nM
CN1CC[C@]23c4c5ccc(O)c4O[C@H]2[C@@H](O)C=C[C@H]3[C@H]1C5 — maximal distance traveled (hyperlocomotion; C57BL/6J male mice; subcutaneous, dose not given): ~20000 cm
Cc1cc(/C=C/C#N)cc(C)c1Oc1nc(NC2CCN(Cc3ccc(P(C)(C)=O)cc3)CC2)nc2ccsc12 — potency ratio (Human immunodeficiency virus 1; viral replication; MT-4, L100I mutant; relative to: doravirine EC50 over compound EC50): ~4.7 fold
CCC1C(=O)N(C2CCN(Cc3cccc4[nH]ccc34)CC2)c2ccccc21 (stereo not drawn) — Ki (OPRL1; radioligand displacement; added: [3H]N/OFQ): 11.1 ± 0.28 nM

Repeated from above:
Cc1cc(/C=C/C#N)cc(C)c1Oc1nc(NC2CCN(Cc3ccc(P(C)(C)=O)cc3)CC2)nc2ccsc12 — potency ratio (Human immunodeficiency virus 1; viral replication; MT-4, L100I mutant; relative to: doravirine EC50 over compound EC50): ~4.7 fold
